{"data": "Experimental data of several laboratories", "note": "Parts stem from different laboratories: compare values within a part only. Several values in a cell are separate wells, animals, samples, runs or records."}
{"data": "Series 1", "cell line": "HEK-293T/ACE2", "tested at": "10 µM", "time": "16 h", "relative to": "vehicle"}
{"Compound": "Cc1ncc(CO)c(CO)c1O", "viability": "99.5%"}
{"Compound": "Cc1c(-c2ccccc2)oc2c(C(=O)OCCN3CCCCC3)cccc2c1=O", "viability": "102%"}
{"Compound": "COc1cc(C)c(/C=C/C(C)=C/C=C/C(C)=C/C(=O)O)c(C)c1C", "viability": "101%"}
{"data": "Series 2", "Structure (SMILES)": "CNC(=N)NCCC[C@H](NC(=O)[C@H](CC(C)C)NC(=O)NNC(=O)[C@H](Cc1ccccc1)NC(=O)[C@H](CO)NC(=O)[C@H](CC(N)=O)NC(=O)[C@@H](Cc1cccnc1)NC(=O)[C@H](N)Cc1ccc(O)cc1)C(=O)NCC(N)=O", "tested at": "0.1 µM", "relative to": "DMSO"}
{"cell line": "sample C colorectal tumour organoid", "notes": "replicate 1", "viability": "88.9%"}
{"cell line": "normal-adjacent epithelium patient-derived organoids sample G", "method": "CellTiter-Glo", "viability": "96.1% and 132%"}
{"cell line": "sample B colorectal tumour organoid", "notes": "replicate 2", "viability": "111%"}
{"data": "Series 3", "target": "RNA binding protein fox-1 homolog 2, RRM domain, GST-SBP tag (RBFOX2, Homo sapiens, UniProt O43251-10, residues 100-194)", "method": "RNA Bind-n-Seq", "molecule type": "RNA", "sample": "in vitro", "tested at": "365 nM", "notes": "natural RNA segment, single round, ends assumed", "relative to": "no-protein control", "direction": "higher = stronger binding", "shared flanks, not repeated": "GGGAGUUCUACAGUCCGACGAUC … UGGAAUUCUCGGGUGCCAA", "Target sequence (chain)": "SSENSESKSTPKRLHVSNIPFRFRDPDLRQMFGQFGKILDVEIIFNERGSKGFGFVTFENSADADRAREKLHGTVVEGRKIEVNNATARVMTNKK"}
{"Sequence": "AGCACAUGCUUUGUUUCAUGUUAUGGGUGAGGACCUACAUACACUCUUACUUUAGCAGUCACUUAACCUUCUCCAGCAAGGCAGUUGUGGGGUUCACUAGGAUUUAGUGC", "RBNS enrichment (R)": 0.353}
{"Sequence": "GCCUGAGGUCAAAGCUGUGGAAGGCCCUCUUGGUAUCAGGGCUCUCUCCCCAUGGCCUCUUCCCCACCUCUGAUUGCUGGUUGUGGCCCCAUAGCUCAUCACCCCUGUCU", "RBNS enrichment (R)": 1.87}
{"Sequence": "ACCCCUAAAGUGACCCUUUCCUCUUCUGCCCUAUUCUUCUCAGACCCUCAGAAAGACAUCCAAUUUUUUUAAAUCCCUGUAGCUCCAAGCCUGGUCUCAUUUGCUUCCCU", "RBNS enrichment (R)": 0.527}
{"Sequence": "AUCUCAUUUCUCAAAAAAAAAAAAUGAUGCCUGUGUUUAUGUACAAUUUAAAUGAUUACAGAGUGCUCCUGCCCAAGGAUCUCAUAGCCUGGAGUGAGGGUCAGAACUGA", "RBNS enrichment (R)": 1.3}
{"Sequence": "AGUGGGCCUGGUAGCACAUGUCUGUCCUCAGAGCAGGGGCCAGAUGAUUUUCCUCCCUGGUUUGCAGCUGUUUUCAAAGCCCCCGAUAAUCGCUCUUUUCCACUCCAAGA", "RBNS enrichment (R)": 0.576}
{"Sequence": "CCCCAGGGUCUCCUGUUAACCAGGCUGACUUCGAACUCACAACCUUUAAUUUCUAACCCUACCACAUCACAUCCAGUUUAUGAUUUUUCCAGAGGCUCAAAGCCAGAACC", "RBNS enrichment (R)": 0.561}
{"Sequence": "CUCCGAGUGGGUGCUCAAGUCCCCCCCGCGACCCACCCGCGGAGUGGGGGGCCCCCUCCGCCACAAGGAAGCACAACCAGCUCGCCCUCCCCCUACCCGGGGCCGCAGGA", "RBNS enrichment (R)": 0.417}
{"Sequence": "ACACUCUCCAGUCAUGUCUCCCAAGGGGAUGCAAUUCAGGCUGAGGAAAAGAUGCCAUAUCCCUCUAAAUCUAGUGAUUAGACCUAGGAUCACCCUGUCUCUUUACCACU", "RBNS enrichment (R)": 0.379}
{"data": "Series 4", "target": "HLA class I histocompatibility antigen, A alpha chain, allele A*26:03 (Homo sapiens, UniProt P04439)", "observed": "peptide-MHC binding", "molecule type": "peptide", "tested at": "concentration not given"}
{"Molecule": "RVFDKADGK", "binding": "inactive"}
{"Molecule": "LYNTIATLY", "binding": "inactive"}
{"Molecule": "EELKSLYNTV", "binding": "inactive"}
{"Molecule": "GEIFGLLGP", "binding": "inactive"}
{"Molecule": "ATNDGLIKK", "binding": "inactive"}
{"Molecule": "EYKKFIATF", "binding": "inactive"}
{"Molecule": "WFGHLASDW", "binding": "inactive"}
{"Molecule": "YECTSRHFT", "binding": "inactive"}
{"Molecule": "AVFLSYIGY", "binding": "inactive"}
{"Molecule": "EMIWDPNGW", "binding": "inactive"}
{"Molecule": "SLYKYLLLR", "binding": "inactive"}
{"Molecule": "QWSPGPGRL", "binding": "inactive"}
{"Molecule": "RENQVAVVR", "binding": "inactive"}
{"Molecule": "RYPGVMYAF", "binding": "inactive"}
{"Molecule": "RHDITGFIL", "binding": "inactive"}
{"Molecule": "IYTTNDNNY", "binding": "inactive"}
{"Molecule": "RTMPLSRFT", "binding": "inactive"}
{"Molecule": "RSLYNTIAVLY", "binding": "inactive"}
{"data": "Series 5", "target": "Eukaryotic initiation factor 4A-I (EIF4A1, Homo sapiens, UniProt P60842, residues 1-406, full length assumed)", "method": "RNA Bind-n-Seq", "molecule type": "RNA", "sample": "in vitro", "tested at": "15 pmol", "notes": "4-mer, random 30-nt RNA, single round", "together with": "3 µM DMDA-PatA, 2 mM AMP-PNP", "relative to": "input library", "direction": "higher = stronger binding", "chain of UniProt P60842 (whole entry, looked up)": "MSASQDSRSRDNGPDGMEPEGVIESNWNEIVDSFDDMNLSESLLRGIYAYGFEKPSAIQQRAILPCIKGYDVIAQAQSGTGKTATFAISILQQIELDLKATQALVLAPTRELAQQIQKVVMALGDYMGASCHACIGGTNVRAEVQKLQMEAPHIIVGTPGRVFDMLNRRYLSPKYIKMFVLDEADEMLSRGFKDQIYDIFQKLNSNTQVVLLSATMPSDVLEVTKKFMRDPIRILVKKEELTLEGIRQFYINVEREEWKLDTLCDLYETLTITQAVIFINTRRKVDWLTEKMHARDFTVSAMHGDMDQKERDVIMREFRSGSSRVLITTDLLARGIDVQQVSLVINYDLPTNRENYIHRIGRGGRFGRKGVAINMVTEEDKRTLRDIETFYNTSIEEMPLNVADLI"}
{"Sequence": "CGCC", "4-mer enrichment": "0.42 fold"}
{"Sequence": "CUGU", "4-mer enrichment": "1.32 fold"}
{"Sequence": "CGAG", "4-mer enrichment": "1.26 fold"}
{"Sequence": "AAAG", "4-mer enrichment": "0.984 fold"}
{"Sequence": "UUGA", "4-mer enrichment": "1.11 fold"}
{"Sequence": "AAAU", "4-mer enrichment": "0.996 fold"}
{"Sequence": "UAUG", "4-mer enrichment": "1.31 fold"}
{"Sequence": "UGCC", "4-mer enrichment": "0.702 fold"}
